Measured values gathered from unrelated publications.
Parts stem from different laboratories: compare values within a part only.

Study 1
Target: Histone acetyltransferase KAT6A, winged helix 2, GST fusion (KAT6A, Homo sapiens, UniProt Q92794, residues 85-181)
Method: protein binding microarray
Molecule type: double-stranded DNA, one strand shown
Medium: in vitro
Tested at: not given
Setting: 8-mer, flanks averaged, mean of 2 arrays, mostly near background
Baseline: not given
Direction: higher = stronger binding
Residues (chain): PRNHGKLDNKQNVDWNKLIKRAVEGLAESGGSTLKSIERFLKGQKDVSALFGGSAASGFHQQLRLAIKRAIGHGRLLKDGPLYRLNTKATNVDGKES
Oligonucleotide	E-score
GACCGCTA	0.088
ATCTCGGG	0.111
GGGACCTA	0.0834
ACCCCTGC	-0.0902
GAAGATAA	0.0625

Study 2
Target: Sal-like protein 4, full length isoform B (SALL4, Homo sapiens, UniProt Q9UJQ4-2, residues 1-616)
Method: universal PBM
Molecule type: double-stranded DNA, one strand shown
Medium: in vitro
Tested at: not given
Setting: 8-mer, flanks averaged, mean of replicates
Direction: higher = stronger binding
Residues (chain): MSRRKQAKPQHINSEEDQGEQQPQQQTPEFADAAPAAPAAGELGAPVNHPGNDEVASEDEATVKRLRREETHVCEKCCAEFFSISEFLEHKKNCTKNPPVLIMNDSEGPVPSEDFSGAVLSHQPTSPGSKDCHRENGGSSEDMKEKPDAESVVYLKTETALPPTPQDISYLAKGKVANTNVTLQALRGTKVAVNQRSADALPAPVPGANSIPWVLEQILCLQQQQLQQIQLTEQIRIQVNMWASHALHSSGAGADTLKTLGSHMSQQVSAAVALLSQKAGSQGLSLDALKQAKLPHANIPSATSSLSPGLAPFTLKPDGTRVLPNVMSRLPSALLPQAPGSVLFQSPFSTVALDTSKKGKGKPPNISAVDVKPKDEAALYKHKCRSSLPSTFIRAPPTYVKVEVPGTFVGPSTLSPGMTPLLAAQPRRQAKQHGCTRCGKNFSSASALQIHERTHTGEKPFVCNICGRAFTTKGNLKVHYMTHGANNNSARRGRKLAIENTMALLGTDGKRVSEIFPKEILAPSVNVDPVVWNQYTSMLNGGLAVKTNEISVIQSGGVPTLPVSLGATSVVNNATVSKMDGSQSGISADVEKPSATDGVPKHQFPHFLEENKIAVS
Oligonucleotide	E-score
AAGGAGAC	-0.0703
ATCTGATG	0.0612
GCGTTACA	0.133

Study 3
Target: Interferon regulatory factor 7, full length, phosphomimetic (IRF7, Homo sapiens, UniProt Q92985, residues 1-503, S471D/S472D/S475D/S476D/S477D/S483D/S484D/S487D)
Method: protein-binding microarray
Molecule type: double-stranded DNA, one strand shown
Medium: in vitro
Tested at: 2200 nM top
Setting: 60-bp whole probe
With: salmon DNA 0.4 mg/ml
Baseline: random background probes
Direction: higher = stronger binding
Constant ends, left off below: GCCTAGCAC … GTGCTAGGTCTTGATTCGCTTGACGCTGCTG
Target sequence (chain): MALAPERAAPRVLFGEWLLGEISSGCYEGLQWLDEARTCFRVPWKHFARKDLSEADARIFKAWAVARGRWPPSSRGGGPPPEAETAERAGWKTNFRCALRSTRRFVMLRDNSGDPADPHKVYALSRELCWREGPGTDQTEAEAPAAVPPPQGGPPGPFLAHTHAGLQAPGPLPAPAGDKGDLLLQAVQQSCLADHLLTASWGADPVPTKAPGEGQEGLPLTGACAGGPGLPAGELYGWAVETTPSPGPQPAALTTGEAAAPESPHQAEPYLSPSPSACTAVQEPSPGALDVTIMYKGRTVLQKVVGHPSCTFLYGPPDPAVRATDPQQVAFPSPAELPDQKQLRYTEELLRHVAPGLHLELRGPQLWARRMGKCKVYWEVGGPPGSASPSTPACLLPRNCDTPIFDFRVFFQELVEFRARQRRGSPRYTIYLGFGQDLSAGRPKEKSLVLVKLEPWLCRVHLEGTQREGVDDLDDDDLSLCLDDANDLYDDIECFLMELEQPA
Oligonucleotide	fitted relative affinity
TCCCTTTCAGTTTTCCTATG	5.26 z-score
GACGATTTCAGTATCGAGTC	1.46 z-score
TTACAACTGAGTCTCGATTA	0.518 z-score
TTAGGTATCCTACTGCTTTC	1.9 z-score
TCACAATTCTCTTTTCAACT	1.48 z-score
TTAGGACTGCTTATCCTATA	0.282 z-score

Other studies, line by line
Substance	target	assay	test system	conditions	how to read	measurement	result
PhoQ, residues 284 288 289 292 302 303 TLSLKA	PhoP, residues 12 14 15 18 19 IFFTR (Escherichia coli, UniProt P23836)	Sort-seq, refers to: YFP reporter	E. coli	PhoQ-PhoP variant library, with: 10 µM Mg2+	baseline: high Mg2+ state, higher = stronger signaling	fold induction	1.14

Excerpt of the above (other studies, line by line):
Substance	target	assay	test system	conditions	how to read	measurement	result
PhoQ, residues 284 288 289 292 302 303 TLSLKA	PhoP, residues 12 14 15 18 19 IFFTR (Escherichia coli, UniProt P23836)	Sort-seq, refers to: YFP reporter	E. coli	PhoQ-PhoP variant library, with: 10 µM Mg2+	baseline: high Mg2+ state, higher = stronger signaling	fold induction	1.14
